Assay results from different studies.
Compare with care: the assays were run in different laboratories. Numbers after ± are the reported error.

Compound | assay | system | conditions | how to read | Cmax
Nc1c2c(cc3c1CCC3)CCC2 | – | human, plasma | oral, 300 mg twice daily of GDC-2394, day 7, multiple ascending dose | – | 19.9 ng/mL
N#Cc1ccc2c(c1)[C@H]1CCCN(C(=O)c3ccc4[nH]cnc4c3)[C@H]1C2 | – | human, plasma | oral, 20 mg once daily, after first dose | – | 1560 nM
Cc1noc(C)c1-c1cc(C(O)(c2ccccn2)c2ccccn2)c2nc(C3CC3)[nH]c2c1 | – | human patients, plasma | oral, 1.4 mg, cycle 1 day 8, monotherapy | – | 117 ng/mL
CC(C)(C#N)c1cc(Cn2cncn2)cc(C(C)(C)C#N)c1 | – | human | 125 mg | – | 15.6 ng/mL
C[C@H]1[C@@H](O)O[C@@H]2O[C@@]3(C)CC[C@H]4[C@H](C)CC[C@@H]1[C@@]24OO3 | – | human, both sexes, plasma | oral, dose not given, non-fixed combination | – | 745 ng/mL
O=C(O)CCCCCCCCCCC(=O)O | – | human, plasma | oral, dose not given | relative to: untreated | 55.6 ± 4.4 nM
C#C[C@]1(O)CC[C@H]2[C@@H]3CCC4=CC(=O)CC[C@@H]4[C@H]3CC[C@@]21CC | – | human female, plasma | single dose oral contraceptive, cpd alone | – | 2.9 ng/mL
C[C@H](CCC(=O)NCCS(=O)(=O)O)[C@H]1CC[C@H]2[C@@H]3CC[C@@H]4C[C@H](OS(=O)(=O)O)CC[C@]4(C)[C@H]3CC[C@]12C | – | human, plasma | concentration not given, endogenous baseline diurnal | – | 219 ± 51 nM
NC1(C(=O)N[C@@H](CCO)c2ccc(Cl)cc2)CCN(c2nc[nH]c3nccc2-3)CC1 | – | human patients, plasma | dose not given, cohort 160/480, cycle 2, geometric mean | – | 694 ng/mL
CCOc1c([C@H](C)n2nc(C)c3c(N)ncnc32)cc(Cl)c(F)c1[C@@H]1CNC(=O)C1 | – | human, DLBCL, plasma | oral, 20 mg, day 15, geometric mean | – | 1960 nM
COc1ccc2nc([S@@+]([O-])Cc3ncc(C)c(OC)c3C)[nH]c2c1 | – | human male, dried plasma spots | oral, 5 mg racemic omeprazole, with: fluvoxamine and voriconazole | – | 446 nM
Cn1ncnc1[C@H]1c2n[nH]c(=O)c3cc(F)cc(c23)N[C@@H]1c1ccc(F)cc1 | – | human patients, plasma | oral, 600 µg/m2 twice daily, day 1, monotherapy, dose level DL4, median | – | 6.2 ng/mL
CNC(=O)c1ccccc1Sc1ccc2c(/C=C/c3ccccn3)n[nH]c2c1 | item: total drug | human, moderate hepatic impairment, plasma | single dose, NCI classification | – | 71.3 ng/mL
C=CC(=O)N(C)CCOc1c(N)ncnc1-c1cc(F)cc(NC(=O)c2ccc(C3CC3)cc2F)c1C | – | human, whole blood | oral, 5 mg, single ascending dose, fasted | – | 5.86 ng/mL
NS(=O)(=O)OC[C@@H]1C[C@@H](n2ccc3c(N[C@H]4CCc5ccccc54)ncnc32)C[C@@H]1O | LC-MS/MS, non-compartmental | human, plasma | intravenous, all dose levels, cycle 1 day 8, median, with: irinotecan/temozolomide | – | 279 ng/mL
Nc1ccn([C@@H]2O[C@H](CO)[C@@H](O)C2(F)F)c(=O)n1 | HPLC-UV | human, plasma | intravenous, 1000 mg/m^2, median, after paricalcitol | – | 8530 ng/mL
Cc1c(OCC(F)(F)F)ccnc1C[S+]([O-])c1nc2ccccc2[nH]1 (stereo not drawn) | – | human, plasma | oral, dose not given, median | – | 1600 ng/mL
CC(C)(C(=O)N1CCOc2c(C#N)cncc2C1)C(F)F | – | humans, both sexes, plasma | oral, 15 mg twice daily, day 14, geometric mean | – | 268 ng/mL
C=CC(=O)NC1CCN(c2ncc3ncnc(Nc4ccc(Oc5ccc6c(c5)ncn6C)c(C)c4)c3n2)CC1 | – | human, male, plasma | oral, 240 mg single dose, fed, geometric mean | – | 4670 nM
CC(C)(Sc1ccncc1-c1ccc(C#N)c2ccccc12)C(=O)O | – | human, plasma | oral, 2.5 mg once daily, with: febuxostat 10 mg | – | 6.25 ng/mL

Compound | assay | system | conditions | how to read | Cmax
COc1ccc2nc([S@@+]([O-])Cc3ncc(CO)c(OC)c3C)[nH]c2c1 | – | human, dried plasma spots | 5 mg racemic omeprazole, with: rifampicin pretreatment | – | 2.7 nM
Cn1cc(-c2ccc(S(=O)(=O)[C@@H]3C[C@@H](C(=O)NC4(C#N)CC4)N(C(=O)C4(C(F)(F)F)CC4)C3)c(C(F)(F)F)c2)cn1 | noncompartmental analysis | human, plasma | oral, 50 mg, day 1, with food, geometric mean | – | 453 ng/mL
Cc1cn(C(=O)c2c(-c3c(Cl)cc(Cl)cc3Cl)noc2C(C)(C)F)c2cccc(/C=C/C(=O)O)c12 | – | human patients | 700 mg bid, cycle 1 day 1 | – | 23800 ng/mL
COc1cc(Nc2c(C#N)cnc3cc(OCCCN4CCN(C)CC4)c(OC)cc23)c(Cl)cc1Cl | item: total drug | human, mild hepatic impairment, plasma | single dose, Child-Pugh classification | – | 78.1 ng/mL
Cc1ncc(CO)c(C(=O)O)c1O | – | human males, White, plasma | concentration not given, endogenous baseline level | – | 4.2 ± 1.5 ng/mL
COc1nnc2ccc(N3CCC(c4ccc(OCCN5CCN(C)C(=O)[C@H]5C)cc4)CC3)nn12 | – | human, plasma | oral, 5 mg once daily, single dose, monotherapy | – | 21.4 nM
Cn1cnc2c(F)c(Nc3ccc(Br)cc3Cl)c(C(=O)NOCCO)cc21 | – | human ESRD on haemodialysis | oral, 50 mg, before dialysis | – | 507 ng/mL
Cc1nc(-c2ccc(OCC(C)C)c(C#N)c2)sc1C(=O)O | – | human, plasma | oral, 10 mg once daily, with: verinurad 5 mg | – | 240 ng/mL
COc1ccc([C@@H](O)c2cc(-c3ncnc4cc(N5CCOCC5)ccc34)c(F)cc2Cl)nn1 | – | healthy human volunteers, plasma | oral, 100 mg single dose, oral suspension, fasted, geometric mean | – | 456 ng/mL
COc1ccc(F)cc1C(=O)NCc1ccc(-c2nn([C@@H](C)C(F)(F)F)c(N)c2C(N)=O)cc1 | – | human, plasma | oral, 200 mg single dose, alone arm, itraconazole interaction study | – | 4000 ng/mL
COc1cc([C@@H]2Oc3cc([C@H]4Oc5cc(O)cc(O)c5C(=O)[C@@H]4O)ccc3O[C@H]2CO)ccc1O | – | OATP1B1/1B3 humanized mice, plasma | oral gavage, 500 mg/kg silymarin | – | 2050 nM
CO[C@H]1C[C@@H]2CC[C@@H](C)[C@@](O)(O2)C(=O)C(=O)N2CCCC[C@H]2C(=O)O[C@H]([C@H](C)C[C@@H]2CC[C@@H](OC(=O)NCCOCCOCCOCCOCCOCCOCCOCCOCCC(=O)N3CCc4cc(Cn5nc(-c6ccc7oc(N)nc7c6)c6c(N)ncnc65)ccc4C3)[C@H](OC)C2)C[C@@H](O)[C@H](C)/C=C(\C)[C@@H](O)[C@@H](OC)C(=O)[C@H](C)C[C@H](C)/C=C/C=C/C=C/1C | – | human patients, plasma | intravenous, 10 mg, cycle 1 day 1, 2 h infusion | – | 205 ng/mL
CC(=O)N(C)[C@H]1CCN(C(=O)c2cnc3c(c2)C[C@](C)(c2ccc(F)cc2)N3)C1 | – | healthy male human, plasma | oral, 15 mg once daily, geometric mean | – | 372 nM
CC(=O)O[C@H]1C(=O)[C@@]2(C)[C@H]([C@H](OC(=O)c3ccccc3)[C@]3(O)C[C@H](OC(=O)[C@H](O)[C@@H](NC(=O)c4ccccc4)c4ccccc4)C(C)=C1C3(C)C)[C@]1(OC(C)=O)CO[C@@H]1C[C@@H]2O | noncompartmental analysis | human cancer patients, plasma | intravenous infusion, 60 mg/m^2, cycle 1 day 15, with: daily oral co-medication | – | 1920 ng/mL
NC1(C(=O)N[C@@H](CCO)c2ccc(Cl)cc2)CCN(c2ncnc3[nH]ccc23)CC1 | – | human, plasma | 800 mg twice daily, day 2, 2 days on, 5 days off | – | 3860 ng/mL
CC1=C(c2cccc(O)c2)[C@H](c2ccc(OCCN3CC(CF)C3)cc2)Oc2ccc(O)cc21 | – | human, plasma | oral, 1400 mg once daily, steady state geometric mean | – | 166 ng/mL
CC#CC(=O)N1CCC[C@H]1c1nc(-c2ccc(C(=O)Nc3ccccn3)cc2)c2c(N)nccn12 | – | human, plasma | oral, 400 mg single dose | – | 1940 ng/mL
C[C@H](Oc1ccc(Br)cc1-c1ccon1)C(=O)O | – | healthy male humans, plasma | oral, 400 mg twice daily, day 10 | – | 31200 ng/mL
N[C@]1(C(=O)O)[C@H]2[C@@H](C[C@@H]1F)[C@@H]2C(=O)O | – | human, both sexes, plasma | oral, 10 mg, fed, single dose | – | 26.6 ng/mL
CN(C)N=Nc1[nH]cnc1C(N)=O | – | human patients, plasma | intravenous, 1000 mg/m^2 over 1 h, cycle 1 day 1, given alone | – | 36300 ng/mL

Compound | assay | system | conditions | how to read | Cmax
Cc1[nH]c(/C=C2\C(=O)Nc3ccc(F)cc32)c(C)c1C(=O)N[C@H]1CCN(C(=O)N(C)C)C1 | – | human, plasma | oral, 100 mg, cycle 1 day 1, single dosing, with: everolimus 5 mg | – | 417 ± 134 ng/mL
O=C(O)CCCCCCCCCCCCC(=O)O | – | human, plasma | concentration not given, endogenous control diurnal | – | 91.2 ± 10.3 nM
CC[C@H](C)[C@@H]([C@@H](CC(=O)N1CCC[C@H]1[C@H](OC)[C@@H](C)C(=O)N[C@@H](Cc1ccccc1)C(=O)NCCCO)OC)N(C)C(=O)[C@@H](NC(=O)[C@H](C(C)C)N(C)C)C(C)C | – | human patients, plasma | intravenous, 30 mg/m², cycle 1 geometric mean | – | 6.73 ng/mL
CC(C)NC(=O)COc1cccc(-c2nc(Nc3ccc4[nH]ncc4c3)c3ccccc3n2)c1 | – | human male, plasma | oral, 200 mg, day 6, fed, alone, geometric mean | – | 2080 ng/mL
Nc1ccc(-c2nc([C@H]3CCc4cc(-c5cc(Cl)ccc5-n5cnnn5)cc(=O)n43)c(F)[nH]2)c(F)n1 | – | human, plasma | oral, 150 mg once daily, day 14 | – | 2000 ng/mL
COc1cc(-c2cnc3cc(OCCN4CCOCC4)ccn23)cc2c1C(=O)N(CC(F)(F)F)CC2 | LC-MS | human, plasma | oral, 350 mg, day 5, with: methotrexate 7.5 mg | – | 1750 ng/mL
N#Cc1cc(NC(=O)[C@H]2c3ccccc3C(=O)N(CC(F)(F)F)[C@@H]2c2cccnc2)ccc1F | – | human, plasma | oral, 900 mg, median | – | 904 ng/mL
CO[C@H]1/C=C/O[C@@]2(C)Oc3c(C)c(O)c4c(O)c(c(/C=N/N5CCN(C)CC5)c(O)c4c3C2=O)NC(=O)/C(C)=C\C=C\[C@H](C)[C@H](O)[C@@H](C)[C@@H](O)[C@@H](C)[C@H](OC(C)=O)[C@@H]1C | – | healthy human subjects, plasma | oral, dose not given, with: glecaprevir and pibrentasvir once daily | – | 8470 ng/mL
Cc1cc(OCCOCCC(F)(F)P(=O)(O)O)ccc1CCc1cnc2c(N)nc3cc(CCC(=O)O)ccc3c2c1 | – | human, serum | intratumoral, 400 µg every 2 weeks, cycle 2 day 15 | – | 1.41 ng/mL
Cc1cc(Nc2cc3ncccc3c(N[C@@H]3C[C@H]4CC[C@@H](C3)N4CCC#N)n2)n[nH]1 | – | human, plasma | 300 mg single dose, mean | – | 7.24 ng/mL
C#C[C@]1(CO)O[C@@H](n2cnc3c(N)nc(F)nc32)C[C@@H]1O | – | human, fed, plasma | oral, 30 mg, geometric mean | – | 535 nM
CC1(COc2ccc3c(c2)ncn3-c2ccc3cccc(N4CCC(N)CC4)c3n2)COC1 | – | human patients, recurrent/progressive HGG or DIPG, serum | oral, 170 mg/m^2, day 28, median | – | 1650 nM
C=CC(=O)N1CCC(Oc2cc3c(Nc4ccc(Cl)c(Cl)c4F)ncnc3cc2OC)CC1 | – | human, fasted, plasma | oral, 16 mg, geometric mean | – | 82.2 ng/mL
O=C(O)CCCCCCCCC(=O)O | – | human, plasma | concentration not given, endogenous control diurnal | – | 41.4 ± 3.6 nM
Cc1ccc(C(=O)N(CCCN)C(c2nc3snc(C)c3c(=O)n2Cc2ccccc2)C(C)C)cc1 (stereo not drawn) | – | human | intravenous, all doses pooled, course day 3 following induction, geometric mean | – | 71.2 ng/mL
CC(C)c1nc(N(C)S(C)(=O)=O)nc(-c2ccc(F)cc2)c1/C=C/[C@@H](O)C[C@@H](O)CC(=O)O | – | human, plasma | oral, 20 mg, day 2, geometric mean, alone | – | 5.04 ng/mL
O=C(Nc1cnccc1Cl)N1CCN(Cc2ccc3c(c2)OC(F)(F)O3)CC1 | – | human healthy young women, plasma | oral, 100 mg once daily, day 1, multiple dose mean | – | 972 ng/mL
C[C@@H](N)c1cc(Cl)ccc1Cn1c(=S)[nH]c(=O)c2[nH]ccc21 | – | human, both sexes, matched healthy controls, plasma | oral, 2.5 mg single dose, geometric mean | – | 6.84 nM
NC(CO)(CO)CCc1ccc(Sc2cccc(OCc3ccccc3)c2)cc1Cl | – | human male fasted, whole blood | oral, 3 mg, given alone | – | 0.768 ng/mL
CN1CC[C@@H](NC(=O)Nc2ccc(C#N)cc2)C[C@@H]1c1nc2ccccc2[nH]1 | – | human | oral, 100 mg once daily, induction cycle day 10, given alone | – | 1180 ng/mL

For quick reference, copied from above:
Compound | assay | system | conditions | how to read | Cmax
CNC(=O)c1ccccc1Sc1ccc2c(/C=C/c3ccccn3)n[nH]c2c1 | item: total drug | human, moderate hepatic impairment, plasma | single dose, NCI classification | – | 71.3 ng/mL
C=CC(=O)N(C)CCOc1c(N)ncnc1-c1cc(F)cc(NC(=O)c2ccc(C3CC3)cc2F)c1C | – | human, whole blood | oral, 5 mg, single ascending dose, fasted | – | 5.86 ng/mL
NS(=O)(=O)OC[C@@H]1C[C@@H](n2ccc3c(N[C@H]4CCc5ccccc54)ncnc32)C[C@@H]1O | LC-MS/MS, non-compartmental | human, plasma | intravenous, all dose levels, cycle 1 day 8, median, with: irinotecan/temozolomide | – | 279 ng/mL
Nc1ccn([C@@H]2O[C@H](CO)[C@@H](O)C2(F)F)c(=O)n1 | HPLC-UV | human, plasma | intravenous, 1000 mg/m^2, median, after paricalcitol | – | 8530 ng/mL
